Published values gathered from unrelated publications.
Each line is one published result; not all experiments were run side by side. Values joined by “and” are separate records of one study, mostly repeats; a detail may differ. Numbers after ± are the reported error.
USP3 ZnF-UBD domain: Ubiquitin carboxyl-terminal hydrolase 3, ZnF-UBD domain (USP3, Homo sapiens, UniProt Q9Y6I4)
Sequence of UniProt Q9Y6I4 (whole entry, looked up): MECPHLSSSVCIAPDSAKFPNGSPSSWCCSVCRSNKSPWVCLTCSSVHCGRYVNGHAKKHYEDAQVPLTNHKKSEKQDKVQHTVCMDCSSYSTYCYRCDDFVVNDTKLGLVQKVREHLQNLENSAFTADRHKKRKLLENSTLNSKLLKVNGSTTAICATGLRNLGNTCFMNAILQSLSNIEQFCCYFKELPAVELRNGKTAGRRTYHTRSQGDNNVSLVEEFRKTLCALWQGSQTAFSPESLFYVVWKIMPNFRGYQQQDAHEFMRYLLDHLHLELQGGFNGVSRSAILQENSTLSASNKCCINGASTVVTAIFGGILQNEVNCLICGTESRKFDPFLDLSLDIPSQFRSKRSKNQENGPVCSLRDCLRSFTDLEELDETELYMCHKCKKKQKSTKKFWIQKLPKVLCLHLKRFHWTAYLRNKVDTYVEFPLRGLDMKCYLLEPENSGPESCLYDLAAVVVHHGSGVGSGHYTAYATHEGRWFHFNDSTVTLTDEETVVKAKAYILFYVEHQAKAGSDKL

| Structure (SMILES) | tested on | assay | system | conditions | how to read | endpoint | result |
| --- | --- | --- | --- | --- | --- | --- | --- |
| CCc1cc(C(=O)NC)c2nccc(N3CCc4c(cc(Cn5ccnc5)cc4-c4cn(C)nc4C(F)(F)F)C3=O)c2c1 |  |  | Sprague Dawley rats | oral, 100 mg/kg twice daily, 7 days | reference: vehicle | blood Eos change | -76.5% |
| CC(C(=O)NCC(=O)NCC(CNC(=O)CNC(=O)C(C)N1CCN(CC(=O)[O-])CCN(CC(=O)[O-])CCN(CC(=O)[O-])CC1)(CNC(=O)CNC(=O)C(C)N1CCN(CC(=O)[O-])CCN(CC(=O)[O-])CCN(CC(=O)[O-])CC1)CNC(=O)CNC(=O)C(C)N1CCN(CC(=O)[O-])CCN(CC(=O)[O-])CCN(CC(=O)[O-])CC1)N1CCN(CC(=O)[O-])CCN(CC(=O)[O-])CCN(CC(=O)[O-])CC1.[Gd+3].[Gd+3].[Gd+3].[Gd+3] (centres unmarked) |  | ICP-MS | rat, femur bone marrow | intravenous, 0.6 mmol Gd/kg, 1 week |  | Gd concentration | 3 nmol/g |
| NCCCC[C@H](NCC(=O)O)C(=O)O |  | ultrafiltration | normal rat serum | 37 °C |  | serum protein binding | 41 ± 39% |
| CCc1cc2ncc(CN3CCN(c4ccc(C(=O)NC)nc4)CC3)cc2[nH]c1=O |  |  | male rat, blood | oral, 50 mg/kg/day, 4 weeks | reference: vehicle control | Lymphocytes count ratio | 0.64 |
| Cc1ccc([C@@H]2O[C@H](CO)[C@@H](O)[C@H](O)[C@H]2O)cc1Cc1ccc(-c2ccc(F)cc2)s1 |  |  | Japanese type 2 diabetes patients | 200 mg, day 5, 24 h urine collection | reference: baseline | urinary sodium excretion change | -1.23 mEq |
| O=C(COCC(F)F)Nc1ccc(C2CCCCC2)cc1 |  | hepatocyte stability | cryopreserved rat hepatocytes | 1 µM |  | hepatic clearance | 49 mL/min/kg |
| O=C(O)CCn1cnc2ccccc21 | USP3 ZnF-UBD domain |  |  |  |  | Kd | > 1000 µM |
| C[C@]12CC[C@@H]3c4ccc(O)cc4CC[C@H]3[C@@H]1CCC2=O |  |  | cow whole milk | 2000 nM | reference: milk fat over skim milk | milk fat partition ratio | 65.2 |
| c1ncc(-c2ccc(C3CCCCC3)cc2)cn1 |  | hepatocyte stability | cryopreserved rat hepatocytes | 1 µM |  | hepatic clearance | 37 mL/min/kg |
| O=C(O)CCC(=O)O.[2H]C([2H])([2H])Oc1cc(C)c2[nH]ccc2c1CN1CC[C@@H](C2CC2)C[C@H]1c1ccc(C(=O)O)cc1 |  |  | healthy Chinese subjects | 100 mg, single ascending dose |  | TEAE decreased fibrinogen | 0% |
| O=C(CC1CCOCC1)Nc1ccc(C2CCCCC2)cc1 |  |  | cynomolgus liver microsomes | 1 µM |  | hepatic clearance | 36 mL/min/kg |
| O=C(Nc1nc2cccc(-c3ccc(CN4CCS(=O)(=O)CC4)cc3)n2n1)C1CC1 |  | item: vomiting | rheumatoid arthritis patients | oral, 200 mg once daily, 4 weeks, any relatedness |  | treatment-emergent adverse events | 8.3% |
| Cc1ccc(C(=O)N(CCCN)C(c2nc3snc(C)c3c(=O)n2Cc2ccccc2)C(C)C)cc1 (centres unmarked) |  |  | human patients | intravenous, 2 mg/day |  | grade ≥3 hyperbilirubinemia patients | 17% |
| COc1cc(Nc2ncc(F)c(Nc3ccc4c(n3)NC(=O)C(C)(C)O4)n2)cc(OC)c1OC |  |  | human | dose not given |  | single adjusting compartment volume | 1.2 L/kg |
| C=CC(=O)NC1CCN(c2ncc3ncnc(Nc4ccc(Oc5ccc6c(c5)ncn6C)c(C)c4)c3n2)CC1 |  | item: gingival bleeding | human male | oral, dose not given, AEs, treatment-related, on drug, CTCAE |  | adverse events incidence | 0% |
| CN(Cc1cccnc1)C(=O)c1ccc(C2CCCCC2)cc1 |  | liver microsome stability | human liver microsomes | 1 µM, without NADPH |  | hepatic clearance | 3.9 mL/min/kg |
| C[C@@H]1OC(=O)[C@H](Cc2ccccc2)[C@H]1O |  | soil adsorption | tested soils | geometric mean |  | KFoc | 86 mL/g |
| CCOc1c([C@H](C)n2nc(C)c3c(N)ncnc32)cc(Cl)c(F)c1[C@@H]1CNC(=O)C1 |  | item: QTcF ≤450 ms | previously treated B-cell malignancy | oral, 20 mg once daily, baseline QTcF ≤450 ms |  | ECG observations | 95.8% |
| O=C(Cn1ccnc1)Nc1ccc([C@H]2[C@@H](F)[C@@H](F)C[C@@H](F)[C@H]2F)cc1 |  |  | cryopreserved mouse hepatocytes | 1 µM |  | hepatic clearance | 21 mL/min/kg |
| CCCOc1ccc(NC(=O)CN2CCN(C)CC2)cc1-c1nc(CC)c(CC)c(=O)[nH]1 |  |  | healthy Chinese men | 10 mg, supine or semi-supine, together with: placebo | reference: baseline | maximal decrease in diastolic BP | -12.6 ± 3.79 mmHg |
| O=C(Nc1ccc(OC(F)(F)Cl)cc1)c1cnc(N2CC[C@@H](O)C2)c(-c2ccn[nH]2)c1 |  | per laboratory record, item: hemoglobin decrease | human patients | oral, dose not given, dose-finding study |  | grade ≥3 event rate | 1% |
| O=C(c1ccc(F)cc1)C1CCN(CCn2c(=O)[nH]c3ccccc3c2=O)CC1 |  |  | rat liver microsomes |  |  | intrinsic clearance | 140 mL/min/kg |
| N[C@@H]1c2ccccc2OC12CCN(c1cnc3c(N4CCCc5ncccc54)n[nH]c3n1)CC2 |  |  | advanced metastatic solid tumour patients, plasma | oral, 75 mg once daily, cycle 1 day 15, geometric mean |  | AUC(0-tau) | 12200 ng·h/mL |
| Cl.[2H]C([2H])([2H])CC(=O)c1cnc(NC(=O)C2CC2)cc1Nc1cccc(-c2ncn(C([2H])([2H])[2H])n2)c1OC |  |  | human, fed, multiple dose | oral, 60 mg once daily, tablet, day 14, geometric mean |  | AUC(0-tau) | 4070 ng·h/mL |
| CCN1/C(=C/C(C)=O)Sc2ccc(F)cc21 |  |  | cynomolgus monkey | oral, 10 mg/kg, 4 h post-dose |  | diastolic blood pressure | 81 ± 5 mmHg |

| Structure (SMILES) | tested on | assay | system | conditions | how to read | endpoint | result |
| --- | --- | --- | --- | --- | --- | --- | --- |
| CC(C)(C(=O)N1CCOc2c(C#N)cncc2C1)C(F)F |  | item: Lymphadenopathy | human | oral, 20 mg once daily, 14 days, multiple ascending dose |  | subjects with adverse event | 0% |
| CN(C)CCC(=O)Nc1ccc([C@H]2[C@@H](F)[C@@H](F)C[C@@H](F)[C@H]2F)cc1 |  | hepatocyte stability | cryopreserved rat hepatocytes | 1 µM |  | hepatic clearance | 28 mL/min/kg |
| CNCc1ccc(-c2[nH]c3cc(F)cc4c3c2CCNC4=O)cc1 |  |  | human patients | oral, 600 mg twice daily, grade 1 |  | dysgeusia incidence | 11.5% |
| O=C(O)Cn1cnc2ccccc2c1=O | USP3 ZnF-UBD domain |  |  |  |  | Kd | 328 µM |
| C[C@@H](O)[C@@H](CO)NC(=O)[C@@H](CCCNC(=N)N)NC(=O)[C@@H]1CCCN1C(=O)[C@@H]1CSSC[C@H](NC(=O)[C@H](Cc2ccccc2)NC(=O)CN2CCN(CC(=O)O)CCN(CC(=O)O)CCN(CC(=O)O)CC2)C(=O)N[C@@H](Cc2ccc(O)cc2)C(=O)N[C@@H](Cc2ccccc2)C(=O)N[C@@H](CCC(N)=O)C(=O)N[C@@H](CC(N)=O)C(=O)N1 [gallium-68 labelled] |  |  | PBS | 3 h, 37 °C |  | radiochemical purity | > 99% |
| CCCCCNC(=O)N1CCC(CN(Cc2ccc(Cl)cc2)Cc2ccc([N+](=O)[O-])s2)C1 (centres unmarked) |  | item: BA% | C57BL/6 mouse, blood | 100 mg/kg twice daily, 7 days |  | blood cell fraction | 0.8 ± 0.3% |
| CC1(C)C(/C=C/C=C/C=C/C=C2\N(CCCCS(=O)(=O)O)c3ccc4ccccc4c3C2(C)C)=[N+](CCCCS(=O)(=O)[O-])c2ccc3ccccc3c21 |  |  | toluene | 20 °C |  | excitation maximum | 795 nm |
| O=C(N[C@H](Cc1c[nH]c2ccccc12)C(=O)Nc1ccncc1)c1ccc(N2CCN(c3ccc(F)c(F)c3)CC2)cc1F |  |  | Swiss Webster mouse, female, plasma | oral, 50 mg/kg, 8 h, 20% HPβCD vehicle |  | concentration | 60 nM |
| COc1ncc(-c2nc3c(n2C(C)C)[C@H](c2ccc(Cl)cc2)N(c2cc(Cl)cn(C)c2=O)C3=O)c(OC)n1 |  | LC-MS/MS | human, plasma | oral, 4 mg, cycle 1 day 8, low-dose arm |  | AUC(0-last) | 140 ng·h/mL |
| Cc1cc(-c2nccc3c2ccn3CC(=O)Nc2ccc(-c3cnccn3)cn2)ccn1 |  |  | human | 5 mg once daily, multiple ascending dose |  | subjects with gastrointestinal disorders | 0% |
| CN1CCN(C(=O)c2ccc(C3CCCCC3)cc2)CC1=O |  | liver microsome stability | rat liver microsomes | 1 µM |  | hepatic clearance | 45 mL/min/kg |
| Cc1noc(C)c1-c1cc(C(O)(c2ccccn2)c2ccccn2)c2nc(C3CC3)[nH]c2c1 |  |  | human patients, fasted, plasma | oral, 3 mg once daily, cycle 1 day 15, together with: enzalutamide once daily |  | Ctau | 8.8 ng/mL |
| CCCCC1=NC2(CCCC2)C(=O)N1Cc1ccc(-c2ccccc2S(=O)(=O)Nc2noc(C)c2C)c(COCC)c1 |  |  | healthy adult volunteers, plasma | oral, 400 mg, single dose, fasted, crushed tablet |  | Cmax | 6970 ng/mL |
| O=C(Nc1ccc([C@H]2[C@@H](F)[C@@H](F)C[C@@H](F)[C@H]2F)cc1)c1cn[nH]c1 |  |  | cryopreserved mouse hepatocytes | 1 µM |  | hepatic clearance | 21 mL/min/kg |
| Cc1cc(Nc2ccc(S(F)(F)(F)(F)F)cc2)n2nc(C(C)(F)F)nc2n1 | Plasmodium vivax | 12-lead Holter ECG | human malaria patients | oral, 600 mg, QTc above 450 ms |  | patients with QTcB above threshold | 11.1% |
| CN(C)C(=O)c1cc2cnc(Nc3ccc(N4CCNCC4)cn3)nc2n1C1CCCC1 |  |  | human, expansion cohort, plasma | oral, 800 mg, day 8, together with: gemcitabine 1000 mg/m^2 |  | AUC(0-8h) | 9750 ng·h/mL |
| NC1(C(=O)N[C@@H](CCO)c2ccc(Cl)cc2)CCN(c2nc[nH]c3nccc2-3)CC1 |  |  | metastatic CRPC patients | dose not given, any grade, treatment-related, all doses, together with: enzalutamide 160 mg daily |  | incidence of Neutropenia | 13.3% |
| Cc1cc(C)c(CNC(=O)c2cc(Cl)c3c(c2C)O[C@@](C)([C@H]2CC[C@H](N(C)C)CC2)O3)c(=O)[nH]1 |  |  | relapsed/refractory NHL patients | oral, 200 mg once daily, onset after cycle 1 day 1 |  | grade ≥3 adverse event Hypercalcemia | 4.2% |
| CN1C(=O)[C@@H](NC(=O)c2nnc(Cc3ccccc3)[nH]2)COc2cccnc21 |  | phase I multiple ascending dose | human, male and female | oral, 200 mg, 14 days |  | TEAE leading to permanent discontinuation | 0% |
| C[Si]1(C)O[Si](C)(C)O[Si](C)(C)O[Si](C)(C)O[Si](C)(C)O[Si](C)(C)O1 |  | IVIVE from S9 | rainbow trout (Oncorhynchus mykiss) |  |  | hepatic biotransformation rate constant | 0.018 h⁻¹ and 0.024 h⁻¹ and 0.032 h⁻¹ |
| C=CC(=O)Nc1cc(Nc2nccc(-c3cn(C4CC4)c4ccccc34)n2)c(OC)cc1N(C)CCN(C)C |  | bench-top stability | rat plasma | 40 ng/mL, 3 h, room temperature | reference: nominal concentration | relative error | -8.3% |
| CC(C)C[C@H](NC(=O)[C@H](N)C(C)C)C(=O)N[C@@H](CCCNC(=N)N)C(=O)N[C@@H](Cc1c[nH]c2ccccc12)C(=O)N[C@@H](CO)C(=O)N[C@@H](CCCNC(=N)N)C(=O)N[C@@H](CCCCN)C(=O)N[C@@H](CC(C)C)C(=O)N1CCC[C@H]1C(=O)N[C@@H](CS)C(=O)N[C@H](C(=O)N[C@@H](CO)C(N)=O)C(C)C |  | 12G5 competition, SUP-T1 cells | human plasma | 20 µM, 2 h, 37 °C |  | remaining activity | 75 ± 8% |
| NC(=O)N1c2ccccc2CC(O)c2ccccc21 (centres unmarked) |  | population PK modelling | human patients, plasma | dose not given, weight-scaled, proportional error |  | volume of distribution | 48.6 L |
| COc1cc(Nc2ncc3c(n2)-c2ccc(Cl)cc2C(c2c(F)cccc2OC)=NC3)ccc1C(=O)O |  |  | patients | oral, dose not given, grade 3, any attribution, together with: pembrolizumab |  | decreased neutrophil count incidence | 13% |
| Nc1ncnc2c1ncn2[C@H]1C[C@@H]2OP(=O)(O)OC[C@H]3O[C@@H](n4cnc5c(N)ncnc54)C[C@@H]3OP(=O)(O)OC[C@H]2O1 |  |  | non-tumor-bearing mice, serum | intravenous, 1 mg/kg, toxicity study |  | creatine kinase | 2150 ± 721 U/L |

Excerpt of the above:
| Structure (SMILES) | tested on | assay | system | conditions | how to read | endpoint | result |
| --- | --- | --- | --- | --- | --- | --- | --- |
| O=C(O)Cn1cnc2ccccc2c1=O | USP3 ZnF-UBD domain |  |  |  |  | Kd | 328 µM |
| C[C@@H](O)[C@@H](CO)NC(=O)[C@@H](CCCNC(=N)N)NC(=O)[C@@H]1CCCN1C(=O)[C@@H]1CSSC[C@H](NC(=O)[C@H](Cc2ccccc2)NC(=O)CN2CCN(CC(=O)O)CCN(CC(=O)O)CCN(CC(=O)O)CC2)C(=O)N[C@@H](Cc2ccc(O)cc2)C(=O)N[C@@H](Cc2ccccc2)C(=O)N[C@@H](CCC(N)=O)C(=O)N[C@@H](CC(N)=O)C(=O)N1 [gallium-68 labelled] |  |  | PBS | 3 h, 37 °C |  | radiochemical purity | > 99% |
| CCCCCNC(=O)N1CCC(CN(Cc2ccc(Cl)cc2)Cc2ccc([N+](=O)[O-])s2)C1 (centres unmarked) |  | item: BA% | C57BL/6 mouse, blood | 100 mg/kg twice daily, 7 days |  | blood cell fraction | 0.8 ± 0.3% |
